Results pooled from the literature.
A part holds a random share of what one study measured.
UniProt Q9UEE5, sequence (whole entry, looked up): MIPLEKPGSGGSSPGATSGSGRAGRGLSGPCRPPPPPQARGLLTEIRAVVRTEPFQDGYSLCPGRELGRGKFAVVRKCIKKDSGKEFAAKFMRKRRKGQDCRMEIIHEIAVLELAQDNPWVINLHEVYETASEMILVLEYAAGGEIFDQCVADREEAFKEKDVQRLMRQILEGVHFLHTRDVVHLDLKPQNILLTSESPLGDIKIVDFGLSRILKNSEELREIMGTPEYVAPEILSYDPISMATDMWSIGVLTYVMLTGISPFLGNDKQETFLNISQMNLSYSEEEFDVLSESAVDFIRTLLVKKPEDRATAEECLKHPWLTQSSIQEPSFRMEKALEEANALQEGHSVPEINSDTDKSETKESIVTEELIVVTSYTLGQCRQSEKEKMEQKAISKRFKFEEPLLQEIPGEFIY

Series 1 — technique: aptamer microarray, sandwich; form: DNA with 2'F-ANA; matrix: in vitro; tested at: 200 nM; added: Cy3 exosite-II aptamer, 400 nM; direction: higher = stronger binding; oligonucleotide: GGTTGGTGTGGTTGG
Target: Prothrombin, mature alpha-thrombin (F2, Homo sapiens, UniProt P00734)
Notes: whole 15-mer aptamer, many near background
| Modification | mean fluorescence intensity [a.u.] |
| --- | --- |
| 2'F-ANA at 1 2 4 5 8 9 10 11 12 15 | 53.7 |
| 2'F-ANA at 2 3 4 5 7 9 14 | 48.1 |
| 2'F-ANA at 2 5 6 8 13 14 | 61.1 |
| 2'F-ANA at 2 3 4 5 8 9 10 11 15 | 50.3 |
| 2'F-ANA at 2 4 5 6 7 11 15 | 56.5 |
| 2'F-ANA at 1 2 3 4 5 9 10 11 12 13 14 15 | 52.7 |
| 2'F-ANA at 3 5 8 9 13 14 15 | 56 |
| 2'F-ANA at 1 2 3 4 6 8 9 10 14 15 | 55.4 |

Series 2 — technique: RNA Bind-n-Seq; form: RNA; matrix: in vitro; tested at: 200 nM; notes: whole 134-nt RNA, ends assumed; added: 150 mM KCl; reference: input library; direction: higher = stronger binding
Target: Ras GTPase-activating protein-binding protein 1, full length (G3BP1, Homo sapiens, UniProt Q13283)
UniProt Q13283, sequence (whole entry, looked up): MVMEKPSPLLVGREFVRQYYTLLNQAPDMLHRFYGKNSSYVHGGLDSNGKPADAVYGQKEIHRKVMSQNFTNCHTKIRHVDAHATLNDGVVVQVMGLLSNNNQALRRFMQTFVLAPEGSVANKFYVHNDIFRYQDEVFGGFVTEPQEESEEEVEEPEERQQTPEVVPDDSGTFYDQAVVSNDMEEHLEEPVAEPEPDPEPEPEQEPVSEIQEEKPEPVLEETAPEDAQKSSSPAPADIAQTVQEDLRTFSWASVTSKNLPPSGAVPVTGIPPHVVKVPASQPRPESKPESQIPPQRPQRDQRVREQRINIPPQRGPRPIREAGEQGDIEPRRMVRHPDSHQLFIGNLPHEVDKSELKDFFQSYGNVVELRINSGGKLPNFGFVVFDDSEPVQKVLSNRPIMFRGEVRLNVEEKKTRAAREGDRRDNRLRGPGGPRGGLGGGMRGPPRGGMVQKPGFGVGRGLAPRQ
| Oligonucleotide | log2 enrichment |
| --- | --- |
| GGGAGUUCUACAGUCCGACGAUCGCAGGAAGUAAAAACAAAUGGAAAAACUUCGGAUAGUGGCAGGGGUGGGGGUUGCUAAGGAAAGGGUGGGAUGGGAGUGGGUAAAGAGUUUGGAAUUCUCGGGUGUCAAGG | 0.515 |
| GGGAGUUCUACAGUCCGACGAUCAAGUCCUGUGCUACACAUCGUAUGUACCGAAUCGGUUUUGGGUUUUGGGGUUUUGGGAAAGUAUUAUGUUACGCCGUUCGGAUCUGCACUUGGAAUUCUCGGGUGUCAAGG | -0.742 |
| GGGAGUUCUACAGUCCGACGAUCAUAGAUUGCGCAGUCUCUUUGUGGAGAGGACUUGAUCAUUAAAGGAAUCAGCGUUCAUAUAUCCAAUGCCGAACCUAAGCACAAUAGCAAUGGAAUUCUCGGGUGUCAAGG | -0.193 |
| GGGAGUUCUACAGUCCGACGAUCUAACUUUAGAGGAGGAUCUGAUGGAUAUGGCAGUGGACGUGGAUUUGGGGAUGGCUAUAAUGGGUAUGGGGGAGGACCUGGAGGUGGCAAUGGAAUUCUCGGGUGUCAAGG | 0.569 |
| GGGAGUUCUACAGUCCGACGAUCAGUCCUGUGCUACACAUCGUAUGUACCGAAUCGGGGCCCCGGGCCCCGGGCCCCGGGAAAGUAUUAUGUUACGCCGUUCGGAUCUGCACUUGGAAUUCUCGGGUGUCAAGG | -0.512 |
| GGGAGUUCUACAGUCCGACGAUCUAACUUUAGAGGAGGAUCUGAUGGAUAUGUCAGUGGACGUGGAUUUGGGGAUGGCUAUAAUGGGUAUGGAGGAGGACCUGGAGGUGGCAAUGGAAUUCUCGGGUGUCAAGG | 0.399 |
| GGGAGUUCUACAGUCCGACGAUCUGGCCCUGGUGGCAUGCGGGGAGGAAGAGGUGGCCUCAUGGAUCGUGGUGGUCCCGGUGGAAUGUUCAGAGGUGUCCGUGGUGGAGACAGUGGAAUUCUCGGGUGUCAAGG | 0.414 |
| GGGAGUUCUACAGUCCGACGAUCGUCCUGUGCUACACAUCGUAUGUACCGAAUCGGGGAAAGGGGAAAGGGGUUUUUGGGGAAAGUAUUAUGUUACGCCGUUCGGAUCUGCACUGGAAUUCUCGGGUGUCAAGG | 0.483 |

Series 3 — technique: RNA Bind-n-Seq; form: RNA; matrix: in vitro; tested at: 20 nM; notes: 6-mer, flanks averaged, single round; added: 150 mM KCl; reference: input library; direction: higher = stronger binding
Target: TAR DNA-binding protein 43, full length, His tag (TARDBP, Homo sapiens, UniProt Q13148, residues 1-414)
| Oligonucleotide | 6-mer enrichment (R) |
| --- | --- |
| GAAUUG | 0.856 |
| AGGACG | 1.58 |
| CCUCGU | 0.593 |
| AAGUGC | 0.811 |
| GGUAGC | 1.49 |
| UCGGGC | 1.63 |
| AUGCGC | 0.869 |
| CCGACC | 0.656 |

Mixed results
| SMILES | target | assay | setting | scale | endpoint | value |
| --- | --- | --- | --- | --- | --- | --- |
| COc1cc2c(cc1OC)-c1[nH]nc(Nc3cccc(F)c3)c1C2 | Serine/threonine-protein kinase 17A (STK17A, Homo sapiens, UniProt Q9UEE5) | enzyme activity, inhibitor | 0.5 µM | reference: control | remaining activity | 87% |
